Published values gathered from unrelated publications.
Numbered parts are unrelated; each lists some results of a single study.

Block 1
Target: Prothrombin, mature alpha-thrombin (F2, Homo sapiens, UniProt P00734)
Technique: aptamer microarray, sandwich
Form: DNA with 2'F-ANA
Medium: in vitro
Tested at: 200 nM
Setting: whole 15-mer aptamer, many near background
Together with: Cy3 exosite-II aptamer, 400 nM
Direction: higher = stronger binding
Oligonucleotide: GGTTGGTGTGGTTGG
| Modification | mean fluorescence intensity |
| --- | --- |
| 2'F-ANA at 2 3 4 6 7 11 13 14 | 219 a.u. |
| 2'F-ANA at 2 3 4 5 8 13 15 | 80.4 a.u. |
| 2'F-ANA at 2 3 5 6 9 12 14 15 | 61.7 a.u. |
| 2'F-ANA at 1 2 3 5 8 9 11 15 | 124 a.u. |
| 2'F-ANA at 2 3 4 6 7 8 15 | 657 a.u. |
| 2'F-ANA at 1 3 4 5 7 11 12 15 | 207 a.u. |
| 2'F-ANA at 8 9 11 | 524 a.u. |
| 2'F-ANA at 1 2 3 6 8 10 14 | 57.5 a.u. |
| 2'F-ANA at 1 2 3 6 9 13 15 | 141 a.u. |
| 2'F-ANA at 1 2 3 5 7 10 12 13 14 | 43.8 a.u. |
| 2'F-ANA at 3 4 6 9 11 15 | 420 a.u. |
| 2'F-ANA at 1 5 7 8 9 10 13 15 | 59.5 a.u. |
| 2'F-ANA at 2 3 11 15 | 699 a.u. |
| 2'F-ANA at 3 4 13 | 600 a.u. |
| 2'F-ANA at 1 2 5 6 10 12 14 | 44.4 a.u. |
| 2'F-ANA at 4 6 10 12 15 | 105 a.u. |
| 2'F-ANA at 10 11 12 | 245 a.u. |
| 2'F-ANA at 1 2 4 5 6 8 10 15 | 48.3 a.u. |
| 2'F-ANA at 3 9 11 12 14 | 657 a.u. |
| 2'F-ANA at 1 2 7 8 10 14 | 45.4 a.u. |

Block 2
Target: RNA binding protein fox-1 homolog 2, RRM domain, GST-SBP tag (RBFOX2, Homo sapiens, UniProt O43251-10, residues 100-194)
Technique: RNA Bind-n-Seq
Form: RNA
Medium: in vitro
Tested at: 365 nM
Setting: natural RNA segment, single round, ends assumed
Reference: no-protein control
Direction: higher = stronger binding
Residues (chain): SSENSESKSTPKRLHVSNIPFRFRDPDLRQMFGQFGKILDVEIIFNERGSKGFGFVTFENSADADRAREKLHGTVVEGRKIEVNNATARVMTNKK
| Oligonucleotide | RBNS enrichment (R) |
| --- | --- |
| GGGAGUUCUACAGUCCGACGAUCCUAUAGACUGCCUCCAGCCGCCCUCCAGUGCUGUGGAGAGACUGUCCCCAGCCUGAGGGACUCUCCUCGGGCCCUCGCCUCUCUACCAAGCACAACACUAAUCCUGUUUCUGGAAUUCUCGGGUGCCAA | 0.249 |
| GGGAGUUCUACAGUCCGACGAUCCUCAUUUAAUCUGUAAAGGUUUGUCGUAAUCCUCUACAAAGCUACUCCCUGUUAUUGUGUGCAAGUUUACACCAGGAUGCUCACUUGAUUUGUGAAUAUUUUUCAUUCCAUGGAAUUCUCGGGUGCCAA | 0.76 |
| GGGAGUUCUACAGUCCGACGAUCUUACACAGAUAGGCAGGCAGGGUGGCAGUCACCUCCCCUGUCCACGUGGAUCCAUCCCUGCCAUUGUGUGAGUCAGAGGGAUAGAUCUGAAGCCUGUGAAUGAUGUCUGGUGGAAUUCUCGGGUGCCAA | 0.539 |
| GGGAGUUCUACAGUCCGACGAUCUAGAUCACCUUAUGGAUGUCGCAAUAAUACAAACCAGUGUACCUCUGACCUUCUCAUCAAGAGAGCUGGGGUGCUUUGAAGAUAAUCCCUACCCCUCUCCCCCAAAUGCAUGGAAUUCUCGGGUGCCAA | 5.34 |
| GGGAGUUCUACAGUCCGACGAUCUUUCAGUUGUCUUGAAGAGCUCUUGCUACUAACUUUGGGUCCUGCUUUUCAUUUAGGUAGAUGGUAAGCAUUCUCUUAAUCAUAAUUAGAACAAACUAGUGACCAAAUUGUGGAAUUCUCGGGUGCCAA | 0.401 |
| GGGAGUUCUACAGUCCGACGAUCGCUUACUGAAUUAUUUUUGCAAAUAAUACAAGGAGGGGAAACUAACUUGCUACUAGUGUUGUUAAUGAAGUAUAGGCCUUGGAACAUUUAAGAAAACUGGUCUUCAGAUAUGGAAUUCUCGGGUGCCAA | 0.495 |
| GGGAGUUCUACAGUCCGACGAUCUUAAGAGCAUUAAAUGAAUAUUAAUCACCUUUAAAGUCUUUUAGAAAAGGACUUGUAUUGGUUUUUGGCUGCAUAGAGGGGUUGAAUAAGUGUAUGUAUGUGUGUGCGUGUGGAAUUCUCGGGUGCCAA | 1.4 |
| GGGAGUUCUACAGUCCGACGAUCCUGGUAUUCCAAGUUGAGUAUGGGUUGAACUGGAAAAUUCCCUGAGGCAUAACUUGUUAGCCAAUUUGAGGAGAGCCAGUUUGAGGGUUAUGAAAGUCAGCACCAGAGAUUGGAAUUCUCGGGUGCCAA | 1.47 |
| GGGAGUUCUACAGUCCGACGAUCGUCGUCUUCAGUUUUAGAGGUUUACUUCUCCCUUGCCUUUGACUCAUUGGACUAGUGCAGAGGCUUUAAGUAGUUUAAAAUGGGCUUUUGCUUUUCUAGGUCAUUAACGUUGGAAUUCUCGGGUGCCAA | 0.85 |
| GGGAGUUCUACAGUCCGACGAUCAUGUAUAAUACUAUUAAAAUAUCCCAUGCUUUGAUCAGGUGGUACAUCAAUAAAAUUUUAAAAAGUAUAGCUGUUUCUAAUGUGUAGUAAUUUAAAAAACAUAUAUCAAGUGGAAUUCUCGGGUGCCAA | 0.763 |
| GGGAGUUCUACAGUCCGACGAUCAUAAAGAGUCAAUCUCUUAAUUAUAUUUUUCAUCAUGUAAACAAGUUUCCCAUUUCCCUUUCUUAGAUUGCACCAGUGAAGGAGAUGUUUUGCAAAGAUUCAGAGAACUAUGGAAUUCUCGGGUGCCAA | 0.638 |
| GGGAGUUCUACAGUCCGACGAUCUGCACUGUGGGUGGCACUAUUUAUUCCUGUGCGUCAUCUGGAAGCCUCACGGAUACAUCCAGCUAUGUGCUUGUCUGGUAGCCUUUGCGUUUAACAAACUAGCAUGAGGCUGGAAUUCUCGGGUGCCAA | 0.381 |

Block 3
Target: Histone acetyltransferase KAT6A, winged helix 2, GST fusion (KAT6A, Homo sapiens, UniProt Q92794, residues 85-181)
Technique: protein binding microarray
Form: double-stranded DNA, one strand shown
Medium: in vitro
Tested at: not given
Setting: 8-mer, flanks averaged, mean of 2 arrays, mostly near background
Reference: not given
Direction: higher = stronger binding
Construct (chain): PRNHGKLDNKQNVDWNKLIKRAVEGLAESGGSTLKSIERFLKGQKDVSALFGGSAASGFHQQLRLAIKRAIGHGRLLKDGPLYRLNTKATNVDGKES
| Oligonucleotide | E-score |
| --- | --- |
| CCAGTACA | -0.0819 |
| GAGAACCC | -0.184 |
| ACCGACCG | 0.0197 |
| ATACCTAC | -0.0311 |
| CGCAGGCA | 0.177 |
| GTGCACAC | -0.18 |
| CCTTCTTC | -0.149 |
| CATACTCA | -0.0334 |
| ACGTCACA | -0.21 |
| TCAACGCA | 0.0849 |
| CGCGGAAC | 0.102 |
| GCGGCACC | 0.117 |
| ACAGCCCA | -0.061 |
| ATCCAGCG | 0.121 |
| GCGAAAGC | 0.181 |
| AATACATT | -0.107 |
| ATATCAGC | -0.0961 |
| CCAGTTGC | 0.0345 |
| AGCGGCGC | 0.205 |
| CAGAGCAA | 0.174 |
| AGTGTGAT | -0.0321 |
| CGGCCGTA | 0.19 |
| AGCTATGG | -0.102 |
| ATCCCGAG | 0.0875 |
| AGTACCAC | -0.141 |

Block 4
Target: Ras GTPase-activating protein-binding protein 1, full length (G3BP1, Homo sapiens, UniProt Q13283)
UniProt Q13283, sequence (whole entry, looked up): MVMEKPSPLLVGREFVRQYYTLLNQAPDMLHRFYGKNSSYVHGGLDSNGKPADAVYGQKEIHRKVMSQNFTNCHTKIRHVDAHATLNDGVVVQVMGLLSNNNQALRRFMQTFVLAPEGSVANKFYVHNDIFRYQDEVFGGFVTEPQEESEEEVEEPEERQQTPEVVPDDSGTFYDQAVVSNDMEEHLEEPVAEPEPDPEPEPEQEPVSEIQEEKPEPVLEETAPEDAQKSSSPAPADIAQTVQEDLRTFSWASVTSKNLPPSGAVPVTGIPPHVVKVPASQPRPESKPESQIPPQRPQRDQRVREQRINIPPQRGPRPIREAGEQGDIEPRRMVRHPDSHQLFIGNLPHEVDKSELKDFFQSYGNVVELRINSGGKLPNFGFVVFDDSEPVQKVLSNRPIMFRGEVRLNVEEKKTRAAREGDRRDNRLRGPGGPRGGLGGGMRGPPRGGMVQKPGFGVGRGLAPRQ
Technique: RNA Bind-n-Seq
Form: RNA
Medium: in vitro
Tested at: 200 nM
Setting: whole 134-nt RNA, ends assumed
Together with: 150 mM KCl
Reference: input library
Direction: higher = stronger binding
| Oligonucleotide | log2 enrichment |
| --- | --- |
| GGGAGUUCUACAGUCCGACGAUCUUGGACUUGGAGCAUCUGCUCAGUGAGUCUCCAGAAGGAAGUCCCUUCCGAGAUAUGGAUGAUGGAAGUGAUUCCCUUGGGGUGGGAUUGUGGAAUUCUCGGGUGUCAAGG | -1.63 |
| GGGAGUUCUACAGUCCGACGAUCCAAGUCCUGUGCUACACAUCGUAUGUACCGAAUCGGGGUUUGGGGAGGGGUGGGGAAAGUAUUAUGUUACGCCGUUCGGAUCUGCACUUCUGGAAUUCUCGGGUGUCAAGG | 1.37 |
| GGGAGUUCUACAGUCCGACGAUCCACAGACAACACGCACCCACACAGACACAGAGGGAAGCGGUUGGGAUGGGGACAGGGUGCACAGCAGGGCGGGGUAGGACCCCAGCCCCUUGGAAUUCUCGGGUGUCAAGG | 1.92 |
| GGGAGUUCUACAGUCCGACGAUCCAAGUCCUGUGCUACACAUCGUAUGUACCGAAUCGGUUUGGAAAAAAAGGAAAGGAAAGUAUUAUGUUACGCCGUUCGGAUCUGCACUUCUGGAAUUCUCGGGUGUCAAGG | -0.942 |
| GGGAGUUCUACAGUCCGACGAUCUCCUCAAGUCCUGUGCUACACAUCGUAUGUACCGAAUCGGAGGAGGGAGGGGAAAGUAUUAUGUUACGCCGUUCGGAUCUGCACUUCCAGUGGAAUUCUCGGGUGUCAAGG | 0.371 |
| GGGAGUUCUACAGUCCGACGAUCGCAGGAAGUAAAAACAAAUGGAAAUGCUUAAAAUAGUGGCAGGGGUGGGGGUUGCUAAGGAAAGGGUGGGAUGGGAGUGGGUAAAGAGUUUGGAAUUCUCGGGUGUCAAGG | 1.2 |
| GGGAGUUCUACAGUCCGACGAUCUGGGAGGUGGAUUUUGUUUAUUUUUUUAGCUCAUUUCCAGGGGUGGGAAUUUUCUUUUAAUAUGUGUCAUGAAUAAAGUUGUUUUUGAAAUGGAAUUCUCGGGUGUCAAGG | 0.133 |
| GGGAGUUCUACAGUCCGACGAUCCUGUGCUACACAUCGUAUGUACCGAAUCGGGGUUUUUUUGGGUUUUUUUGGGUUUUUUUGGGAAAGUAUUAUGUUACGCCGUUCGGAUCUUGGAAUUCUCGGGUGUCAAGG | -0.914 |
| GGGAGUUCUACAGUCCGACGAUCCUGUGCUACACAUCGUAUGUACCGAAUCGGGCCCCCCCGGGCCCCCCCGGGCCCCCCCGGGAAAGUAUUAUGUUACGCCGUUCGGAUCUGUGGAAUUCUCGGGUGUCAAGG | -0.961 |
| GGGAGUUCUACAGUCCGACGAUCUCAAGUCCUGUGCUACACAUCGUAUGUACCGAAUCGGUUUGGUUUUUUUGGAGGAAAGUAUUAUGUUACGCCGUUCGGAUCUGCACUUCCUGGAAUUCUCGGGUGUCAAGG | -0.487 |
| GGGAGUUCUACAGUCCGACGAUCACCAUGCAGGUGGGCAUCUUUGGGAAGUGGGGCAAGGGGGGGAUAGGGAGGGGGGUAACACUUUGGGAAUAGGUGGUCCCAGGUCGUUUCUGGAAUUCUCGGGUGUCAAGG | 1.01 |
| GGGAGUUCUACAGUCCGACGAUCUCAAGUCCUGUGCUACACAUCGUAUGUACCGAAUCGGCCCGGCCCGGGGCCCGGAAAGUAUUAUGUUACGCCGUUCGGAUCUGCACUUCCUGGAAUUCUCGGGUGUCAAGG | -0.877 |
| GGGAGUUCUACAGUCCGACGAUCUCCUGUGCUACACAUCGUAUGUACCGAAUCGGGAAAAAGGGGAAAAAGGGGAAAAAGGGGAAAGUAUUAUGUUACGCCGUUCGGAUCUGCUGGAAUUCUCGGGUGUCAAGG | 0.298 |
| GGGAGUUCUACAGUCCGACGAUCCACAGACAACACGCGCCCACACAGACACAGAGGGAAGGGGUUGGGAUGGGGACAGGGUGCACAGCAGGGCGGGGUAGGACCCCAGCCCCUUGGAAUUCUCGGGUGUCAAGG | 1.86 |

Excerpt of the above (block 4):
| Oligonucleotide | log2 enrichment |
| --- | --- |
| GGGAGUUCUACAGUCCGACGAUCCUGUGCUACACAUCGUAUGUACCGAAUCGGGCCCCCCCGGGCCCCCCCGGGCCCCCCCGGGAAAGUAUUAUGUUACGCCGUUCGGAUCUGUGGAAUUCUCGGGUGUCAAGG | -0.961 |
| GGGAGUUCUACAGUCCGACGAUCUCAAGUCCUGUGCUACACAUCGUAUGUACCGAAUCGGUUUGGUUUUUUUGGAGGAAAGUAUUAUGUUACGCCGUUCGGAUCUGCACUUCCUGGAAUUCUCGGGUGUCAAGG | -0.487 |
| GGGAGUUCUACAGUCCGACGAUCACCAUGCAGGUGGGCAUCUUUGGGAAGUGGGGCAAGGGGGGGAUAGGGAGGGGGGUAACACUUUGGGAAUAGGUGGUCCCAGGUCGUUUCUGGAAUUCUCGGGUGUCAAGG | 1.01 |
| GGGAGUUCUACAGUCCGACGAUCUCAAGUCCUGUGCUACACAUCGUAUGUACCGAAUCGGCCCGGCCCGGGGCCCGGAAAGUAUUAUGUUACGCCGUUCGGAUCUGCACUUCCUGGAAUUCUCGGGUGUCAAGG | -0.877 |
